# Measurements of several laboratories.
# Compare with care: the assays were run in different laboratories. Numbers after ± are the reported error.
Compound,assay,test system,conditions,scale,measurement,result
NC(=O)c1nc(F)c[nH]c1=O,UV-Vis spectrophotometry,supercritical CO2,"120 min, 318 K, 27 MPa, 872.04 kg/m^3",,solubility,1690 µg/mL
N#Cc1ccc(N2N=C3c4ccc(C(=O)N5CCC(O)CC5)nc4CC[C@@H]3[C@@H]2C2CCCC2)cc1Cl,,"human, plasma","oral, 0.5 mg, single dose",,CL/F,0.725 L/h
CCCCc1oc2ccc(NS(C)(=O)=O)cc2c1C(=O)c1ccc(OCCCN(CCCC)CCCC)cc1,,"beagle dog, female, persistent atrial fibrillation model","intravenous, 3 mg/kg, 0.5 h",,peak QTcF change,16 ± 11 ms
CC1N=C(c2ccccc2F)c2cc(Nc3ccc(O)cc3)ccc2NC1=O (stereo not shown),shake flask,PBS,"24 h, pH 7.4",,aqueous solubility,198 µM
CSCC[C@@H]1NC(=O)[C@H](CC(=O)O)NC(=O)CNC(=O)[C@H](CCCNC(=N)N)NC(=O)[C@H](C)NC(=O)[C@H](CCC(=O)O)NC(=O)[C@H](CCCNC(=N)N)NC(=O)[C@@H]2CSSC[C@@H]3NC(=O)[C@H](CO)NC(=O)[C@H]([C@@H](C)O)NC(=O)[C@@H]4CCCN4C(=O)[C@H](C)NC(=O)[C@H](Cc4c[nH]c5ccccc45)NC(=O)[C@H](CC(=O)O)NC(=O)CNC(=O)[C@H](CCCNC(=N)N)NC(=O)CNC(=O)[C@H](CCC(N)=O)NC(=O)[C@@H]4CCCN4C(=O)[C@@H](NC(=O)CNC(=O)C(C)F)CSSC[C@H](NC(=O)CNC(=O)[C@H](C)NC(=O)[C@H](CC(C)C)NC(=O)[C@H](CSSC[C@@H](C(=O)NCC(N)=O)NC(=O)[C@H]([C@@H](C)O)NC(=O)[C@H](CCCNC(=N)N)NC(=O)[C@@H]4CCCN4C1=O)NC(=O)[C@H](CC(=O)O)NC(=O)[C@H](CO)NC(=O)[C@H](CC(=O)O)NC(=O)[C@H](CCC(N)=O)NC(=O)[C@H](CO)NC3=O)C(=O)N[C@@H](C(C)C)C(=O)N2 (stereo partly shown) [fluorine-18 labelled],,"nude mice U-87 MG xenograft, liver","intravenous, 2.5 h",,tissue uptake,0.29 ± 0.1 %ID/g
[123I]c1cncc(OC[C@@H]2CCN2)c1,SPECT,"human, thalamus","intravenous bolus, 8.6 mCi",relative to: plasma,tissue/plasma ratio,31.6
CCCCCCCCCCCCCCCC[N+](C)(C)C,ultrafiltration,human serum,,,unbound fraction in blood,0.112
CS(=O)(=O)CCCn1c(Cn2c(=O)n(CC(F)(F)F)c3ccncc32)cc2cc(Cl)ccc21,,RSV-infected infants,"concentration not given, mid dose cohorts",,patients with high aPTT,0%
CC(=O)N[C@H](CCCCNC(=O)C(C)F)C(=O)N[C@@H](CS)C(=O)N[C@@H](CS)C(=O)N[C@@H](CCC(=O)O)C(=O)N[C@@H](Cc1c[nH]cn1)C(=O)N[C@H](Cc1ccccc1)C(=O)N[C@@H](CCCNC(=N)N)C(=O)N[C@@H](Cc1c[nH]c2ccccc12)C(=O)N[C@@H](CS)C(=O)N[C@@H](CCCNC(=N)N)C(=O)N1CCC[C@H]1C(=O)N[C@H](C(N)=O)C(C)C (stereo partly shown) [fluorine-18 labelled],,"C57BL/6 mice, male, B16-F10 tumour, blood","intravenous, 4 h",,tissue uptake,0.15 ± 0.04 %ID/g
Cl.Cl.NCCCn1c2c(c3ccc(N)cc3c1=O)C(=O)c1ccccc1-2,,"Sprague-Dawley rat, female, liver","oral, 40 mg/kg/day for 3 days, 3 h after last dose, mean",,tissue concentration,4.28 µg/g
C[C@H]1CNCCc2ccc(Cl)cc21,,"male Sprague-Dawley rat, plasma","subcutaneous, pimavanserin 1 + lorcaserin 1 mg/kg, pimavanserin 15 min earlier",,AUC(0-t),48.9 ± 2.71 ng·h/mL
Cc1cc(C(C#N)c2ccc(Cl)cc2)c(Cl)cc1NC(=O)c1cc(I)cc(I)c1O (stereo not shown),"HPLC, non-compartmental","Corriedale lambs, parasitized, plasma","oral, 10 mg/kg, added: moxidectin 0.2 mg/kg oral",,elimination half-life,18.6 days
CN[C@@](C)(C[18F])C(=O)O,,"SCID mouse DU-145 xenograft, liver","30 min, post injection",,tissue uptake,8.5 ± 2.1 %ID/g
